Published values gathered from unrelated publications.
Lines come from different studies, so protocols differ.
Organism: Escherichia coli

SMILES | assay | test system | setting | MIC
Cc1c(CN(C)C(=O)/C=C/c2cnc3c(c2)CCC(=O)N3)oc2ccccc12 | broth microdilution | AR-0137 | – | > 32 µg/mL
CC1COc2c(N3CCN(C)CC3)c(F)cc3c(=O)c(C(=O)O)cn1c23 (stereo not shown) | broth microdilution | – | 18 h | 0.0625 µg/mL
C=C[C@]1(C)C[C@@H](OC(=O)CO)[C@]2(C)[C@H](C)CC[C@]3(CCC(=O)[C@H]32)[C@@H](C)[C@@H]1O | – | ATCC 25922 | – | > 40 µM
CCC(CC)c1cc(CCN2CCCN(Cc3ccc(C(F)(F)F)cc3)CC2)nc(-c2ccncc2)n1 | broth microdilution | ATCC 25922 | – | > 64 µg/mL
CC1(C)S[C@@H]2[C@H](NC(=O)[C@H](N)c3ccccc3)C(=O)N2[C@H]1C(=O)O | broth microdilution | ATCC 10546 | – | 2 µg/mL
Cc1cc(-c2cn[nH]c2-c2cccc(OCc3cccc(C#N)c3)c2)cc(C)n1 | CLSI broth microdilution | AR-0549 | – | 2 µg/mL
CO[C@@H]1[C@@H](OC(N)=O)[C@@H](O)[C@H](Oc2ccc3c(O)c(NC(=O)c4ccc(O)c(CC=C(C)C)c4)c(=O)oc3c2C)OC1(C)C | – | ATCC 25922 | – | 160 µM
CO[C@H]1/C=C/O[C@@]2(C)Oc3c(C)c(O)c4c(O)c(c(/C=N/N5CCN(C)CC5)c(O)c4c3C2=O)NC(=O)/C(C)=C\C=C\[C@H](C)[C@H](O)[C@@H](C)[C@@H](O)[C@@H](C)[C@H](OC(C)=O)[C@@H]1C | broth microdilution | – | 18 h | 8 µg/mL
C/C(=N/NC(=O)c1cn(-c2ccccc2)nc1-c1ccccc1)c1c(O)cc(C)oc1=O | – | DH5α | – | 300 µg/mL
NC[C@H]1O[C@H](O[C@H]2[C@H](O)[C@@H](O[C@H]3O[C@H](CO)[C@@H](O)[C@H](N)[C@H]3O)[C@H](N)C[C@@H]2N)[C@H](N)C[C@@H]1O | broth microdilution | ATCC 25922 | ambient air | 0.5 µg/mL
O=[N+]([O-])c1ccc2[nH]c(CNCC34CC5CC(CC(C5)C3)C4)nc2c1 | – | ATCC 25922 | – | > 128 µg/mL
N=C(N)c1ccc(OCc2ccc(COc3ccc(C(=N)N)cc3)cc2)cc1 | – | BW25113 | compound alone, added: erythromycin checkerboard | > 200 µg/mL
O=[N+]([O-])c1ccc(O)c2ncccc12 | – | – | – | 12.5 µM
CO[C@H]1/C=C/O[C@@]2(C)Oc3c(C)c(O)c4c(c3C2=O)C(=O)C(N2CCN(c3nc(-c5ccccc5)cs3)CC2)=C(NC(=O)/C(C)=C/C=C/[C@H](C)[C@H](O)[C@@H](C)[C@@H](O)[C@@H](C)[C@H](OC(C)=O)[C@H]1C)C4=O | – | ATCC 25922 | – | 20 µM
CC(C)Oc1c(NC(=O)c2ccc(N3C(=O)C[C@H](NC(=O)c4cc(F)c(/N=N/c5c(F)cccc5F)c(F)c4)C3=O)cc2)ccc(C(=O)N/N=C/c2c(Cl)cncc2Cl)c1O | – | BW25113 | 18 h, 37 °C, irradiated at 365 nm, photostationary state | > 6.4 µg/mL
CO[C@H]1/C=C/O[C@@]2(C)Oc3c(C)c(O)c4c(O)c(c(/C=N/N5CCN(C)CC5)c(O)c4c3C2=O)NC(=O)/C(C)=C\C=C\[C@H](C)[C@H](O)[C@@H](C)[C@@H](O)[C@@H](C)[C@H](OC(C)=O)[C@@H]1C | broth microdilution OD600 | Mueller-Hinton broth | 24 h, 37 °C, added: 4 µM FeCl3 | 8 µM
CC(C)Oc1c(NC(=O)c2ccc(N3C(=O)C[C@H](NC(=O)c4ccc(NC(=O)c5ccc(C#N)cc5)cc4)C3=O)cc2)ccc(C(=O)N/N=C/c2cccn2C)c1O | – | BW25113 | 18 h, 37 °C, irradiated at 365 nm, photostationary state | 0.84 µg/mL
NC[C@H]1O[C@H](O[C@H]2[C@H](O)[C@@H](O[C@H]3O[C@H](CO)[C@@H](O)[C@H](N)[C@H]3O)[C@H](N)C[C@@H]2N)[C@H](N)C[C@@H]1O | broth microdilution | G92 | 18 h | 16 µg/mL
Cc1ccc(C(C)C)c(OC2=C(Cl)C(=O)c3ccccc3C2=O)c1 | broth microdilution | MTCC 405 | – | 10 µg/mL
NC[C@H]1O[C@H](O[C@H]2[C@H](O)[C@@H](O[C@H]3O[C@H](CO)[C@@H](O)[C@H](N)[C@H]3O)[C@H](N)C[C@@H]2N)[C@H](O)[C@@H](O)[C@@H]1O | broth microdilution | ATCC 25922 | – | 6.87 µM
Cc1c(CN(C)C(=O)/C=C/c2cnc3c(c2)CC(NC(=O)OC(C)(C)C)C(=O)N3)oc2ccccc12 (stereo not shown) | broth microdilution | AR-0541 | – | > 32 µg/mL
O=C(N[C@H](CO)[C@H](O)c1ccc([N+](=O)[O-])cc1)C(Cl)Cl | – | ATCC 25922 | – | 40 µM

SMILES | assay | test system | setting | MIC
CNC(C)C1CCC(N)C(OC2C(N)CC(N)C(OC3OCC(C)(O)C(NC)C3O)C2O)O1 (stereo not shown) | broth microdilution | ATCC 25922 | 5% CO2 | 2 µg/mL
CC[C@]1(C)C[C@@H](OC(=O)CSc2nnc(N)[nH]2)[C@]2(C)[C@H](C)CC[C@]3(CCC(=O)[C@H]32)[C@@H](C)[C@@H]1O | – | ATCC 25922 | – | > 40 µM
O=C(Cc1ccccc1)N[C@@H]1C(=O)N2C(C(=O)O)=C(CSc3cccc4cccnc34)C[S+]([O-])[C@H]12 (stereo partly shown) | – | 2018-015 | – | > 128 µg/mL
N=C(N)c1ccc(OCCCCCCCCCCCOc2ccc(C(=N)N)cc2)cc1 | – | BW25113 | compound alone, rifampicin checkerboard | > 25 µg/mL
C[C@H]1COc2c(N3CCN(C)CC3)c(F)cc3c(=O)c(C(=O)O)cn1c23 | broth microdilution | ATCC 25922 | 5% CO2 | 0.03 µg/mL
N=C(N)c1cccc(OCc2ccccc2COc2cccc(C(=N)N)c2)c1 | – | BW25113 | compound alone, rifampicin checkerboard | > 200 µg/mL
Cn1nnc(-c2ccc(-c3ccc(N4C[C@H](CO)OC4=O)cc3F)cn2)n1 | broth microdilution | – | compound alone | 2.5 µM
CC(NCCC(c1ccccc1)c1ccccc1)c1ccccc1 (stereo not shown) | – | MC4100 tolC::Tn10 | – | 16 µg/mL
CC(=O)NC[C@H]1CN(c2ccc(N3CCSCC3)c(F)c2)C(=O)O1 | broth microdilution | – | compound alone | 10 µM
CN(C)c1ccc2nc3ccc(=[N+](C)C)cc-3sc2c1 | – | ATCC 25922 | 18 h, 37 °C, LED irradiation 10 min | > 128 µM
CC(C)Oc1c(NC(=O)c2ccc(NC(=O)[C@H](CC(N)=O)NC(=O)c3cc(F)c(/N=N/c4c(F)cccc4F)c(F)c3)cc2)ccc(C(=O)N/N=C/c2ccc(C(=O)O)s2)c1O | – | BW25113 | dark ground state | > 6.4 µg/mL
CN[C@H](CC(C)C)C(=O)N[C@H]1C(=O)N[C@@H](CC(N)=O)C(=O)N[C@H]2C(=O)N[C@H]3C(=O)N[C@H](C(=O)N[C@H](C(=O)O)c4cc(O)cc(O)c4-c4cc3ccc4O)[C@H](O)c3ccc(c(Cl)c3)Oc3cc2cc(c3O[C@@H]2O[C@H](CO)[C@@H](O)[C@H](O)[C@H]2O[C@H]2C[C@](C)(N)[C@H](O)[C@H](C)O2)Oc2ccc(cc2Cl)[C@H]1O | – | DSM 1116 | iron-depleted medium | > 20 µM
CC1(C)SC2C(NC(=O)C(NC(=O)C3=C(O)C(Cc4ccsc4)NC3=O)c3ccccc3)C(=O)N2C1C(=O)O (stereo not shown) | broth microdilution | BW25113 wild type | 18 h | 25 µg/mL
N=C(N)c1ccc(OCCCCCCCOc2ccc(C(=N)N)cc2)cc1 | – | BW25113 | compound alone, added: erythromycin checkerboard | > 100 µg/mL
CCC(=O)O[C@@H]1CC(=O)O[C@H](C)C/C=C/C=C/[C@H](O)[C@H](C)C[C@H](CC=O)[C@H](O[C@@H]2O[C@H](C)[C@@H](O[C@H]3C[C@@](C)(O)[C@@H](OC(=O)CC)[C@H](C)O3)[C@H](N(C)C)[C@H]2O)[C@H]1OC | – | ATCC 25922 | – | 640 µM
C[C@H]1COc2c(N3CCN(C)CC3)c(F)cc3c(=O)c(C(=O)O)cn1c23 | agar dilution | 16-1 ESBL | – | 0.5 µg/mL
N=C(N)c1ccccc1OCCCCCOc1ccccc1C(=N)N | – | BW25113 | compound alone, rifampicin checkerboard | > 200 µg/mL
CC1(C)S[C@@H]2[C@H](NC(=O)[C@H](N)c3ccccc3)C(=O)N2[C@H]1C(=O)O | – | ATCC BAA-196, resistant | 18 h, 37 °C, LED light 10 min, 1.57 mW | > 128 µM
N=C(N)c1ccc(OCc2ccccc2COc2ccc(C(=N)N)cc2)cc1 | – | mcr-3 polymyxin-resistant | compound alone | > 200 µg/mL
CC[C@H]1OC(=O)[C@H](C)[C@@H](O[C@H]2C[C@@](C)(OC)[C@@H](O)[C@H](C)O2)[C@H](C)[C@@H](O[C@@H]2O[C@H](C)C[C@H](N(C)C)[C@H]2O)[C@](C)(O)C[C@@H](C)CN(C)[C@H](C)[C@@H](O)[C@]1(C)O | broth microdilution | – | 18 h | 16 µg/mL
C[C@@H]1O[C@@H]1P(=O)(O)O | broth microdilution | ATCC 25922 | 5% CO2 | 0.5 µg/mL
